Assay results collected from several papers.
Lines come from different studies, so protocols differ. ± marks the error that the study gave.

COc1cc(NC(=O)C(=O)c2c(C)n(Cc3ccc(Cl)cc3)c3ccc(C)cc23)ccn1  AUC(0-inf) (female cynomolgus monkey, plasma; intravenous, 1 mg/kg): 1.76 µg·h/mL
CC(C)C[C@@H](NC(=O)[C@@H](CCCNC(=N)N)NC(=O)[C@@H](Cc1c[nH]cn1)NC(=O)[C@@H](Cc1c[nH]c2ccccc12)NC(=O)[C@@H](Cc1c[nH]cn1)NC(=O)[C@@H](Cc1ccccc1)NC(=O)[C@H](NC(=O)[C@@H](Cc1ccc(O)cc1)NC(=O)CNC(=O)CNC(=O)CCOCCOCCOCCNC(=O)CN1CCN(CC(=O)O)CCN(CC(=O)O)CC1)[C@H](C)O)C(=O)N[C@H](CC(N)=O)C(=O)N1CCC[C@@H]1C(=O)O [gallium-68 labelled]  tumour to muscle ratio (dynamic PET; male C57BL/6 mice, tumour; intravenous, 60 min; relative to: tumour over muscle): 12.9 ± 2.64
CSCC[C@@H]1NC(=O)[C@@H]2CSSC[C@H](NC(=O)[C@H](CO)NC(=O)[C@H](C)N)C(=O)N[C@@H](CCCNC(=N)N)C(=O)N[C@@H]([C@@H](C)O)C(=O)N3CCC[C@H]3C(=O)N[C@@H](CCCCN)C(=O)N[C@@H](CC(=O)O)C(=O)N[C@H]3CSSC[C@H](NC(=O)[C@H](CCCCN)NC(=O)[C@H](CCCNC(=N)N)NC(=O)[C@H](CC(N)=O)NC1=O)C(=O)N[C@@H](CCCCN)C(=O)N[C@H]1CSSC[C@H](NC(=O)[C@@H]4CCCN4C(=O)[C@H](CC(=O)O)NC(=O)[C@H](C)NC3=O)C(=O)N[C@@H](C)C(=O)N[C@@H](CCCCN)C(=O)N[C@@H](CCC(=O)O)C(=O)N[C@@H]([C@@H](C)O)C(=O)NCC(=O)N[C@@H](CSSC[C@@H](C(N)=O)NC(=O)[C@H](CCCNC(=N)N)NC(=O)[C@H](CC(N)=O)NC1=O)C(=O)N1CCC[C@H]1C(=O)N[C@@H](Cc1ccc(O)cc1)C(=O)NCC(=O)N[C@@H](CCCCN)C(=O)N2  VLDL (DA rat, pristane-induced arthritis, serum; subcutaneous, 0.1 mg/kg once weekly, 21 days): 10.8 mg/dL
CC(C)C[C@@H]1NC(=O)[C@@H](Cc2ccccc2)NC(=O)[C@H](CCN)NC(=O)[C@@H](NC(=O)[C@H](CN)NC(=O)[C@@H](NC(=O)CC(CN)C2CCCCC2)[C@@H](C)O)CCNC(=O)[C@H]([C@@H](C)O)NC(=O)[C@H](CCN)NC(=O)[C@H](CCN)NC1=O (some centres unmarked)  kidney concentration (LC-MS/MS; male CD-1 mouse, kidney homogenate; subcutaneous, 17.2 mg/kg single dose, 4 h): 198000 ng/g
C=Cc1c(C)c2cc3nc(c(CC(=O)O)c4[nH]c(cc5nc(cc1[nH]2)C(C)=C5CC)c(C)c4C(=O)O)[C@@H](CCC(=O)NCCCC[C@H](NC(C)=O)C(=O)N[C@@H](Cc1ccccc1)C(=O)N[C@@H](Cc1ccccc1)C(=O)N[C@H](C(=O)N[C@@H](CC(C)C)C(=O)N[C@@H](CCCCN)C(=O)N[C@@H](CO)C(=O)NCC(=O)N[C@@H](CCC(N)=O)C(=O)N[C@@H](Cc1ccc(O)cc1)C(=O)N[C@@H](C)C(=O)N[C@@H](CO)C(=O)N[C@@H](Cc1ccc(O)cc1)C(=O)N[C@@H](Cc1c[nH]cn1)C(=O)N[C@@H](CS)C(=O)N[C@@H](Cc1c[nH]c2ccccc12)C(=O)N[C@@H](CS)C(=O)N[C@@H](Cc1c[nH]c2ccccc12)C(=O)N[C@@H](CCCNC(=N)N)C(=O)N[C@@H](CC(=O)O)C(=O)N1CCC[C@H]1C(=O)NCC(=O)N[C@@H](CCCNC(=N)N)C(=O)N[C@@H](CO)C(=O)NCC(=O)NCC(=O)N[C@@H](CO)C(=O)N[C@@H](CCCCN)C(N)=O)C(C)C)[C@@H]3C  half-life alpha (tumour-free mice, plasma; iv, 13 mg/kg): 2.54 h
C/C=C/C=C/C/C=C/CCCCCCCc1cccc(O)c1O  tissue concentration (female Kunming mice tumour-bearing, lungs; intravenous, 10 mg/kg, 1 h): 12400 ± 1850 ng/g
COC(=O)C[C@](O)(CCCC(C)(C)OC(C)=O)C(=O)O[C@@H]1C(OC)=C[C@]23CCCN2CCc2cc4c(cc2[C@H]13)OCO4  tissue concentration (CD1 mouse, brain; oral, 1 mg/kg, 8 h, below quantification limit 1.00 ng/mL): not detected
CC(C)C[C@H](NC(=O)[C@H](CCCCN)NC(=O)[C@H](CCC(=O)O)NC(=O)[C@H](C)NC(=O)[C@@H](NC(=O)[C@H](CCCCN)NC(=O)[C@H](CC(=O)O)NC(=O)[C@H](Cc1ccc(O)cc1)NC(=O)[C@H](Cc1ccccc1)NC(=O)[C@H](C)NC(=O)[C@H](CCCCN)NC(=O)[C@H](CC(C)C)NC(=O)[C@H](Cc1c[nH]c2ccccc12)NC(=O)[C@@H](N)CC(=O)O)C(C)C)C(=O)N[C@@H](CCCCN)C(=O)N[C@@H](CCC(=O)O)C(=O)N[C@@H](C)C(=O)N[C@@H](Cc1ccccc1)C(=O)N1CCC[C@H]1C(=O)N[C@@H](CC(=O)O)C(=O)N[C@@H](Cc1c[nH]c2ccccc12)C(=O)N[C@@H](C)C(=O)N[C@@H](CCCCN)C(=O)N[C@@H](C)C(=O)N[C@@H](C)C(=O)N[C@@H](Cc1ccc(O)cc1)C(=O)N[C@@H](CC(=O)O)C(=O)N[C@@H](CCCCN)C(=O)N[C@@H](C)C(=O)N[C@@H](C)C(=O)N[C@@H](CCC(=O)O)C(=O)N[C@@H](CCCCN)C(=O)N[C@@H](C)C(=O)N[C@@H](CCCCN)C(=O)N[C@@H](CCC(=O)O)C(=O)N[C@@H](C)C(=O)N[C@@H](C)C(=O)O  AUC(0-inf) (cynomolgus monkey male, plasma; intravenous infusion, 8 mg/kg, day 1, 30 min infusion): 415 µg·h/mL
CCCCCCCCCCCCC(=O)O.O=C1CCCC2C3CCCN4CCCC(CN12)C34 (centres unmarked)  critical micelle concentration (water; concentration not given, 298.15 K): 0.0024 mol/kg
CC1=CC=c2ccc3c4c2[N]1[Re](=[C]=O)(=[C]=O)(=[C]=O)([C]#[N+]c1cc(C)cc(C)c1)[N]4C(C)=CC=3.O=S(=O)([O-])C(F)(F)F  emission maximum (PBS, up to 1% DMSO; pH 7.4, air-equilibrated): 504 nm
CCOP(=O)(OCC)OCCCCOC(=O)CC1=C(C)/C(=C/c2ccc([S+](C)[O-])cc2)c2ccc(F)cc21 (centres unmarked)  Cmax (rat, muscle; topical, dose not given): 680 nmol/g tissue
